{"data": "Measurements from different studies", "MET Y1235D": "Hepatocyte growth factor receptor (MET, Homo sapiens, UniProt P08581, Y1235D)", "MET": "Hepatocyte growth factor receptor (MET, Homo sapiens, UniProt P08581)", "MET M1250T": "Hepatocyte growth factor receptor (MET, Homo sapiens, UniProt P08581, M1250T)"}
{"Structure (SMILES)": "CNC(=O)C1CCN(c2cc(C)c(F)cc2NC(=O)c2ccc(-c3cc(O)ccc3C)c(C)c2)CC1", "target": "MET Y1235D", "assay": "binding, competition with immobilised ligand", "conditions": "1 µM", "remaining binding [%]": 97}
{"Structure (SMILES)": "CCN1CCN(Cc2ccc(C(=O)Nc3ccc(C)c(NCc4cnc5[nH]ccc5c4OC)c3)cc2C(F)(F)F)CC1", "target": "MET", "assay": "binding, competition with immobilised ligand", "conditions": "1 µM", "remaining binding [%]": 82}
{"Structure (SMILES)": "Cc1ccc(-c2c(/C=C(\\C#N)C(=O)NC(C)C)n(CCCO)c3ncnc(N)c23)cc1", "target": "MET", "assay": "cell-free assay, competition with immobilised ligand", "conditions": "1 µM", "remaining binding [%]": 100}
{"Structure (SMILES)": "COc1c(Cl)cccc1Nc1c(-c2ccncc2C#C[C@@]2(C)CCCN2C(=O)/C=C/CN(C)C)[nH]c2c1C(=O)NCC2", "target": "MET", "assay": "cell-free assay, competition with immobilised ligand", "conditions": "3 µM", "remaining binding [%]": 92}
{"Structure (SMILES)": "CN1CCN(Cc2ccc(NC(=O)c3cccc(C#Cc4cnc(N)c5ncccc45)c3)cc2C(F)(F)F)CC1", "target": "MET", "assay": "cell-free assay, competition with immobilised ligand", "conditions": "0.5 µM", "remaining binding [%]": 79}
{"Structure (SMILES)": "CNC1C[S+]2CC[S+]3CC[S+](C1)[Ru-4]321([N]=C=S)[n]2c3ccc(OC)cc3c3c4c(c5cc(F)c[n+]1c5c32)C(=O)NC4=O (centres unmarked)", "target": "MET M1250T", "assay": "KinomeScan", "conditions": "0.1 µM", "how to read": "baseline: untreated", "remaining binding [%]": 82}
{"Structure (SMILES)": "CC(=O)N1c2ccc(-c3ccc(CNC(=O)c4cn5cc(-c6cnc(N)nc6)nc(N6CCOCC6)c5n4)cc3)cc2CC[C@@H]1C", "target": "MET", "assay": "KINOMEscan", "conditions": "10 µM", "remaining binding [%]": 92}
{"Structure (SMILES)": "COc1cc(Nc2nccc(-c3cnn4nc(OC)ccc34)n2)cc(C(F)(F)F)c1", "target": "MET M1250T", "assay": "binding", "conditions": "1 µM", "remaining binding [%]": 100}
{"Structure (SMILES)": "CNS(=O)(=O)Nc1nccc(Cc2c(C)c3ccc(Oc4ncccc4F)cc3oc2=O)c1F", "target": "MET", "assay": "cell-free assay, competition with immobilised ligand", "conditions": "10 µM", "remaining binding [%]": 69}
{"Structure (SMILES)": "Nc1ncc2c(n1)-c1c([nH]c3ccc(C4=CCOCC4)cc13)CCC2", "target": "MET", "assay": "binding, competition with immobilised ligand", "conditions": "1 µM", "remaining binding [%]": 97}
{"Structure (SMILES)": "C=CC(=O)N1CCCC(n2c(=O)c3ncccc3n(Cc3ccc(Oc4ccccc4)cc3)c2=O)C1 (centres unmarked)", "target": "MET", "assay": "cell-free assay, competition with immobilised ligand", "conditions": "1 µM", "remaining binding [%]": 90}
{"Structure (SMILES)": "C=CC(=O)N1CCc2ccc(-n3c(=O)ccc4cnc5ccc(-c6cnn(C)c6)cc5c43)cc21", "target": "MET", "assay": "KINOMEscan", "conditions": "1 µM", "how to read": "baseline: DMSO control", "remaining binding [%]": 100}
{"Structure (SMILES)": "CC(C)=CC1OC(C)(C)C2C=C3C(=O)C(Cl)=CC(O)C3C3C(O)C4OC4C(=O)C132 (centres unmarked)", "target": "MET M1250T", "assay": "cell-free assay, competition with immobilised ligand", "conditions": "10 µM", "remaining binding [%]": 92}
{"Structure (SMILES)": "Cc1cnc2nc1Nc1cccc(c1)COC/C=C/COCc1cc(ccc1OCCN1CCOCC1)N2", "target": "MET Y1235D", "assay": "binding", "conditions": "0.1 µM", "remaining binding [%]": 100}
{"note": "Excerpt of the above:"}
{"Structure (SMILES)": "COc1c(Cl)cccc1Nc1c(-c2ccncc2C#C[C@@]2(C)CCCN2C(=O)/C=C/CN(C)C)[nH]c2c1C(=O)NCC2", "target": "MET", "assay": "cell-free assay, competition with immobilised ligand", "conditions": "3 µM", "remaining binding [%]": 92}
